# Results from different studies.
# Numbered parts are unrelated; each lists some results of a single study. Positions count from the first letter of the parent shown.

# Series 1
# Target: CCND3, cyclin fold, Cln2 fusion (human)
# Method: yeast growth competition, sequencing
# Matrix: yeast
# Notes: weak parent motif
# Reference: not given
# Direction: higher = stronger binding
# Starting sequence: CDC25A docking peptide (human); PPHRRRLLFACSP; partner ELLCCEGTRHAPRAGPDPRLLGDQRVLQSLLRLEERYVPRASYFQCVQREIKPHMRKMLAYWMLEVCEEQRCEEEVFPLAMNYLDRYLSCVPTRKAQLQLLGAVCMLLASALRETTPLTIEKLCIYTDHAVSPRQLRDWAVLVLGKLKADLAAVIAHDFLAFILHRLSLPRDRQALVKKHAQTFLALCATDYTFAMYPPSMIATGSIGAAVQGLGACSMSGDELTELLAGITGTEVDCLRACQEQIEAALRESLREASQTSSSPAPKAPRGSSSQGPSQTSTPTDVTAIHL
Variant,normalised enrichment score
PPHRRWLLFACSP [R6W],0.226
PPTRRRLLFACSP [H3T],0.0824
PPHRRRLLFACVP [S12V],0.156
PVHRRRLLFACSP [P2V],0.0734
PPHRRRLLFACWP [S12W],0.156
PPHRRRKLFACSP [L7K],0.125
PPHRRVLLFACSP [R6V],0.182
PPHRRRLLFAWSP [C11W],0.0897
PPHRRRLSFACSP [L8S],0.0535
PPHRRRLLFACPP [S12P],0.13
PPHRRRLLLACSP [F9L],0.307
PPHRWRLLFACSP [R5W],0.0936
VPHRRRLLFACSP [P1V],0.0961
PPHRRRLLIACSP [F9I],0.137
PPHRRRLLFGCSP [A10G],0.156
PPHRGRLLFACSP [R5G],0.124
PPHRRRLLFHCSP [A10H],0.108
PPHRRTLLFACSP [R6T],0.13

# Series 2
# Target: Ras GTPase-activating protein-binding protein 1, full length (G3BP1, Homo sapiens, UniProt Q13283)
# Chain of UniProt Q13283 (whole entry, looked up): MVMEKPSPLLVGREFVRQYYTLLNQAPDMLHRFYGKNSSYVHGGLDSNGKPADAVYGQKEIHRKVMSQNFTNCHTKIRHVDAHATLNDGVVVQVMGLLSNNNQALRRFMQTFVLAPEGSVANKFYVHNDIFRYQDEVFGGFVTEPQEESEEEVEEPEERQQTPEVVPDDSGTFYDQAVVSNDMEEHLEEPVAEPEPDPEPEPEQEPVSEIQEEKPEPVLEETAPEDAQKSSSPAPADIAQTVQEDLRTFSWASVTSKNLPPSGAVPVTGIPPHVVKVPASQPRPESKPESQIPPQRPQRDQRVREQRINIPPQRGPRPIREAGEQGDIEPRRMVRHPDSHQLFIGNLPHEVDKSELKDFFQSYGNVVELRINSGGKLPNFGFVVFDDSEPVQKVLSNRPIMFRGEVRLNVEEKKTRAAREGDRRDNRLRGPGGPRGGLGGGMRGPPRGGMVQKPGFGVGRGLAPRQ
# Method: RNA Bind-n-Seq
# Molecule type: RNA
# Matrix: in vitro
# Tested at: 200 nM
# Notes: whole 134-nt RNA, ends assumed
# With: 150 mM LiCl
# Reference: input library
# Direction: higher = stronger binding
# Library: 7-deaza-guanosine replaces G
# Constant ends, left off below: GGGAGUUCUACAGUCCGACGAUC … UGGAAUUCUCGGGUGUCAAGG
Sequence,log2 enrichment
CACAGACAACACGCACCCACACAGACACAGAGGGAAGGGGUUGGGAAAAGGACAGGGUGCACAGCAGGGCGGGGUAGGACCCCAGCCCCU,0.223
CACAGACAACACGCACCCACACAGACACAGAGGGAAGGGGUUGGGAUAGGGACAGGGUGCACAGCAGGGCGGGGUAGGACCCCAGCCCCU,0.672
UCAAGUCCUGUGCUACACAUCGUAUGUACCGAAUCGGGGUUGGGUUGGGGUUGGAAAGUAUUAUGUUACGCCGUUCGGAUCUGCACUUCC,0.128
UGGGAGGUGGAUUUUGUUUAUUUUUUUAGCUCAUUUCCAGGGGUGGGAAUUUUUUUUUAAUAUGUGUCAUGAAUAAAGCUGUUUUUGAAA,-0.177
CAAGUCCUGUGCUACACAUCGUAUGUACCGAAUCGGGAGGGUUUUUUUGGGUGGGAAAGUAUUAUGUUACGCCGUUCGGAUCUGCACUUC,0.74
CAAGUCCUGUGCUACACAUCGUAUGUACCGAAUCGGGGAAAAGGAAAAGGAAAAGGAAAGUAUUAUGUUACGCCGUUCGGAUCUGCACUU,-0.994

# Series 3
# Target: Prothrombin, mature alpha-thrombin (F2, Homo sapiens, UniProt P00734)
# Method: aptamer microarray, sandwich
# Molecule type: DNA with 2'F-ANA
# Matrix: in vitro
# Tested at: 200 nM
# Notes: whole 15-mer aptamer, many near background
# With: Cy3 exosite-II aptamer, 400 nM
# Direction: higher = stronger binding
# Sequence: GGTTGGTGTGGTTGG
Modification,mean fluorescence intensity
2'F-ANA at 2 8 10 11 15,211 a.u.
2'F-ANA at 3 5 6 7 8 12 13 14,75 a.u.
2'F-ANA at 3 7 8 14 15,609 a.u.
2'F-ANA at 3 5 7 9 15,128 a.u.
2'F-ANA at 2 5 6 7 8 10 11 12 13 14,60.1 a.u.
2'F-ANA at 1 4 5 6 7 10 12 14 15,47.4 a.u.
2'F-ANA at 2 6 9 10 13 15,82.7 a.u.
2'F-ANA at 1 3 4 6 7 8 9 10 11 12 14 15,55.4 a.u.
2'F-ANA at 1 3 4 6 11 13 15,121 a.u.
2'F-ANA at 2 5 8 12 13 14,45.9 a.u.
2'F-ANA at 3 4 6 8 11 13 14,236 a.u.
2'F-ANA at 1 2 4 5 6 10 12 13 14 15,84.2 a.u.
2'F-ANA at 2 3 4 6 8 9 10 11 15,178 a.u.
2'F-ANA at 4 6 11 12 13 15,273 a.u.

# Series 4
# Target: Histone acetyltransferase KAT6A, winged helix 2, GST fusion (KAT6A, Homo sapiens, UniProt Q92794, residues 85-181)
# Method: protein binding microarray
# Molecule type: double-stranded DNA, one strand shown
# Matrix: in vitro
# Tested at: not given
# Notes: 8-mer, flanks averaged, mean of 2 arrays, mostly near background
# Reference: not given
# Direction: higher = stronger binding
# Residues (chain): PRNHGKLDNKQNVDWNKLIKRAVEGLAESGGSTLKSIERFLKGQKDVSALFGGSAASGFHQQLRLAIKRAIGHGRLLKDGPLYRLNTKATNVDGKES
Sequence,E-score
CCTTATTC,-0.169
GTTTTGAA,0.189
ACTCGAAC,-0.163
ACCAAACC,0.0986
AAAAAAGG,0.0462
GACAGTCA,-0.104
CCGTTCAC,-0.13
CTGCGAAA,0.174
TCGATACA,-0.0364
CCCTTGAG,0.212
ACACAGAA,0.128
GAATCCGA,-0.0133
ACATACTA,-0.0817
CTCCGAAC,0.0814
CCCTTACA,-0.0131
AATGCGTG,-0.0349
GGGTCACA,0.00948
CCAGCTAC,-0.086
GAGCAGTA,0.198
GCATCCGA,0.11
CTTACACC,-0.15
CCTAACAG,0.082
GGCTGTAA,-0.0877
AAATCGGA,0.113
CGATGGCA,0.0881

# Series 5
# Target: ABI1, truncated, D143A, DHFR fusion (Arabidopsis thaliana)
# Method: DHFR PCA, deep sequencing
# Matrix: yeast
# Notes: methotrexate growth selection, single substitutions
# With: (+)-ABA 200 µM
# Reference: wild-type fitted maximum
# Direction: higher = stronger binding
# Starting sequence: PYL1, truncated, DHFR fusion (Arabidopsis thaliana); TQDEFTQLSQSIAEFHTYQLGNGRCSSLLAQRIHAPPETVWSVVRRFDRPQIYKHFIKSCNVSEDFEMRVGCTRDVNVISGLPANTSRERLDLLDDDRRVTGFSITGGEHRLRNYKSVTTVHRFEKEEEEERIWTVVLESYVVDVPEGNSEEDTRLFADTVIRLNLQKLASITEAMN; partner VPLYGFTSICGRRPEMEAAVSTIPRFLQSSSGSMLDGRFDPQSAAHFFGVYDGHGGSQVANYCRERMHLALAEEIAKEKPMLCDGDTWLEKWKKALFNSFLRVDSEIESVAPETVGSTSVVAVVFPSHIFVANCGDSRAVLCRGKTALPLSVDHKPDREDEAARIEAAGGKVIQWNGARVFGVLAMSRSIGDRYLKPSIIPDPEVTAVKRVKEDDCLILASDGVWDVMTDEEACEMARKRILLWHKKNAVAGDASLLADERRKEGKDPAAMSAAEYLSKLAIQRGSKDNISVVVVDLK
Variant,relative binding score [%]
S104K,59.3
L138W,21.5
R111Q,70.8
L93C,106
S11C,98.6
R98S,88.5
N177I,98.5
L169P,7.13
A84Q,12.9
N61F,101
C25L,85.2
E174P,65
R45F,-1.75
K126F,98.2
R98N,122
R98D,81.1
V118R,105
E38G,92.3

# Excerpt of the above (series 3):
Modification,mean fluorescence intensity
2'F-ANA at 1 2 4 5 6 10 12 13 14 15,84.2 a.u.
2'F-ANA at 3 5 7 9 15,128 a.u.
2'F-ANA at 1 4 5 6 7 10 12 14 15,47.4 a.u.
2'F-ANA at 3 5 6 7 8 12 13 14,75 a.u.
2'F-ANA at 3 4 6 8 11 13 14,236 a.u.
2'F-ANA at 1 3 4 6 11 13 15,121 a.u.
2'F-ANA at 4 6 11 12 13 15,273 a.u.
2'F-ANA at 2 5 6 7 8 10 11 12 13 14,60.1 a.u.
2'F-ANA at 2 6 9 10 13 15,82.7 a.u.
2'F-ANA at 2 3 4 6 8 9 10 11 15,178 a.u.
2'F-ANA at 3 7 8 14 15,609 a.u.
